{"data": "Measurements from different studies", "note": "Every numbered part comes from another study and shows a few of its results, in no order. Positions count from the first letter of the parent shown."}
{"data": "Series 1", "target": "RING finger protein unkempt homolog, zinc fingers 1-6, SBP tag (UNK, Homo sapiens, UniProt Q9C0B0, residues 30-357)", "method": "RNA Bind-n-Seq", "form": "RNA", "medium": "in vitro", "tested at": "100 nM", "notes": "RNA with constant flanks, vertebrate orthologous sites, ends assumed", "relative to": "input RNA pool", "direction": "higher = stronger binding", "constant ends, left off below": "GGGAGUUCUACAGUCCGACGAUC … CAACAGAGGAUUGAGCAUCA", "UniProt Q9C0B0, sequence (30-357, looked up)": "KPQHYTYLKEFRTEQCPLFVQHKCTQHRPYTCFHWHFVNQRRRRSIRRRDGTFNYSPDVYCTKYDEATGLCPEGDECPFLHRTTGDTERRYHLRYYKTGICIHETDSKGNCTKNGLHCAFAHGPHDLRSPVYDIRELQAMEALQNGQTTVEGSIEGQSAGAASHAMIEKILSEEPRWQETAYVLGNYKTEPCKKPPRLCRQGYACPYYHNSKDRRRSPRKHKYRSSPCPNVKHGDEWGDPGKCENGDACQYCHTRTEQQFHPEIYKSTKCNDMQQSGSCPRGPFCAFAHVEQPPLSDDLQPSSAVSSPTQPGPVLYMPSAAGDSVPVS"}
{"Sequence": "UUUGAGGGAGAGAUUCCUGUGGUUUUUUAAUACUUAAUUUGUUUUCUUUAGCUAUUCCAGUAUGCCAUUUUUGAUGGAACUGGUUUAUUGACAGUUCCUGGCAUAUGGUCAGAUUAGAUA", "bound/input enrichment [ratio]": 1.3}
{"Sequence": "AAGAUGGUUUCAAUCUCGUCUCUCUCCCUGUGGGGAGUGGGGGAAGCUGUUCCAAUCCAUGGGUUUUUUUUUAAAUUUGUUUGUUUUUUUAUUUUAAAAAAAUACUGUAUUUAUUAUGAC", "bound/input enrichment [ratio]": 0.681}
{"Sequence": "GAGUUACAGAUCAGAGGACUCAGAAACAAGAUCAUCUGCCUCAUGGCUACCAUCUUCACUCAGAAACAGAUGCACGCCUCUCUUUUCCAGGAGAAGGCGAGAAGGAAGGGAUGAAACAGC", "bound/input enrichment [ratio]": 0.318}
{"Sequence": "AUUAAAUAUGUAUCAGAUGCUGGAUGUAACAUUGAACCAUCAUUUAUAAUAGAUGUUAAUUUGUUAUACUUAAGCUACAAAUAGGUUUCCUUAAACCAGAGAUACACUGCCCUUGUCUGA", "bound/input enrichment [ratio]": 0.202}
{"Sequence": "UGGUAUUUUCAAACAAUAGGAAGCGUCCUGGUUUGUUCGUUUUUUUUUUUUUUCUUACAGUUUCGUAUCUGGUUUCUACAUGGAAGACUAAACUCAUGCUUAGAGUUAAAUGUGGUCUUU", "bound/input enrichment [ratio]": 0.53}
{"Sequence": "AUCUCUCAUUUUACAUGUCCAAAAAAAGUUUGGAAUUUUUAAACAAUUGCUAGUUUUAAUUAGCUCUGCCCUCAUGAAGUAUUAUAAUCACCAAAAACAGAUUAUCUGUCUGAAUUACUU", "bound/input enrichment [ratio]": 0.571}
{"Sequence": "UCCAGUCUUAUACUUAUGGUUGGCCUCAAGUCUAUUGCAUUUAUGACAAUGUAUUAUAUCUAGUUAAUUUGAGUUUAAUAUUUUUUAUUAGCCUGUAAAUAAAGAUGGCAUAUUCUACAU", "bound/input enrichment [ratio]": 0.164}
{"Sequence": "UCACAAACUCAAAGGGGAACUAGUAAAGAGAUUCUAAUAGUUAGGAAAAGAGUAGGAAUUUAGGAAAGAGUAGGACAACUUUACAAAUGAACAAUUAAAAAUAAAAGAGAGAGAAUCCGG", "bound/input enrichment [ratio]": 0.563}
{"Sequence": "CCUACAAUAAUGAAAACCUACAGGAAUUUUUUUAUUUUUCAUUUUCCCCUUAGGUAUACUUAGUCUUUUUUUUCCCCCAGGCAGAUCAUUCUGAGUGUGCGAGUGUGUGUGCACAUGUUA", "bound/input enrichment [ratio]": 3.53}
{"Sequence": "AGGAAAUGCUGGCUGCAAAUCCUCAGGAUCGUCCAGACGCUUUUGAACUAGAACUCAGAUUAGUACAAAUUGCGUUUAAAGAUAGCAGCUGGGAAACGUGACACACAUAUUAUCUGCAGA", "bound/input enrichment [ratio]": 0.723}
{"Sequence": "AUAAGAACUCUUGCAGUCUUAGAUGUUAUAAAAAAUAUGUAUCUGAAUUGUAAGAGUUGUUAGUACAGUUUUUUGUUUUUUAAAAGCACUUGUUUUGGGUACAAGGCUUUUCUGAAAUUU", "bound/input enrichment [ratio]": 0.213}
{"data": "Series 2", "target": "CCNB3, cyclin fold, Cln2 fusion (human)", "method": "yeast growth competition, sequencing", "medium": "yeast", "notes": "weak parent motif", "relative to": "not given", "direction": "higher = stronger binding", "parent": "INSM1 docking peptide (human); PKAIRKLHFEDEV; partner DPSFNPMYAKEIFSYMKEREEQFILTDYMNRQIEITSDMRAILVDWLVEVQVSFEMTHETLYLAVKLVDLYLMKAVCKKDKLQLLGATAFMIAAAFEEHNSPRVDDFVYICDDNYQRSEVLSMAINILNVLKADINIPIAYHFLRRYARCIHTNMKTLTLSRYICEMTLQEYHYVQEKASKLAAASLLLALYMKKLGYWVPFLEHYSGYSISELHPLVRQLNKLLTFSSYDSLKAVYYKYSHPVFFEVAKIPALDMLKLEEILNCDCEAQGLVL"}
{"Variant": "R5L", "normalised enrichment score": 0.14}
{"Variant": "R5G", "normalised enrichment score": -0.308}
{"Variant": "K6D", "normalised enrichment score": 0.108}
{"Variant": "E12W", "normalised enrichment score": 0.266}
{"Variant": "L7A", "normalised enrichment score": -0.025}
{"Variant": "E10Y", "normalised enrichment score": 0.145}
{"Variant": "D11V", "normalised enrichment score": 0.16}
{"Variant": "E10K", "normalised enrichment score": -0.0283}
{"Variant": "A3W", "normalised enrichment score": -0.262}
{"Variant": "E10C", "normalised enrichment score": 0.0461}
{"Variant": "E12C", "normalised enrichment score": 0.559}
{"Variant": "E12M", "normalised enrichment score": 0.868}
{"data": "Series 3", "target": "Interferon regulatory factor 5, full length, phosphomimetic (IRF5, Homo sapiens, UniProt Q13568-2, residues 1-514, K96S/S451D/S453D/S456D/S462D)", "method": "protein-binding microarray", "form": "double-stranded DNA, one strand shown", "medium": "in vitro", "tested at": "250 nM", "notes": "60-bp whole probe", "with": "salmon DNA 0.4 mg/ml", "relative to": "random background probes", "direction": "higher = stronger binding", "constant ends, left off below": "GCCTAGCAC … GTCTTGATTCGCTTGACGCTGCTG"}
{"Sequence": "ATAGGACTGCTTATCCTTTAGTGCTAG", "log fluorescence [z-score]": 0.102}
{"Sequence": "TTCGGACTGGGACTGGGTTAGTGCTAG", "log fluorescence [z-score]": -0.208}
{"Sequence": "GACGGACTGGACTTTCGCGACGTGCTA", "log fluorescence [z-score]": 0.634}
{"Sequence": "GTAGGTTTCCTTTTCCTTTAGTGCTAG", "log fluorescence [z-score]": 1.59}
{"Sequence": "TTGGGTTTCGGTTCCGGTTAGTGCTAG", "log fluorescence [z-score]": 10.4}
{"Sequence": "TTAGGTATCCTATTGCTTTAGTGCTAG", "log fluorescence [z-score]": 0.0298}
{"Sequence": "TCACTTTTATTTTTTTTACTGTGCTAG", "log fluorescence [z-score]": 1.57}
{"Sequence": "GACGGTTTCGGTATCGAGACGTGCTAG", "log fluorescence [z-score]": 9.95}
{"data": "Single results of other studies"}
{"Substance": "PhoQ, residues 284 288 289 292 302 303 SLCLSL", "target": "PhoP, residues 12 14 15 18 19 STWGI (Escherichia coli, UniProt P23836)", "assay": "Sort-seq, item: YFP reporter", "system": "E. coli", "conditions": "PhoQ-PhoP variant library, with: 10 µM Mg2+", "scale": "relative to: high Mg2+ state, higher = stronger signaling", "measurement": "fold induction", "value": 2.78}
{"note": "A few entries again (series 3):"}
{"Sequence": "GACGGTTTCGGTATCGAGACGTGCTAG", "log fluorescence [z-score]": 9.95}
{"Sequence": "TTAGGTATCCTATTGCTTTAGTGCTAG", "log fluorescence [z-score]": 0.0298}
{"Sequence": "TTGGGTTTCGGTTCCGGTTAGTGCTAG", "log fluorescence [z-score]": 10.4}
